Results from different studies.
Each line is one published result; not all experiments were run side by side. ± gives the spread as reported.
Rhomboid protease AarA: Rhomboid protease AarA (Providencia stuartii, UniProt P46116)
Chain of UniProt P46116 (whole entry, looked up): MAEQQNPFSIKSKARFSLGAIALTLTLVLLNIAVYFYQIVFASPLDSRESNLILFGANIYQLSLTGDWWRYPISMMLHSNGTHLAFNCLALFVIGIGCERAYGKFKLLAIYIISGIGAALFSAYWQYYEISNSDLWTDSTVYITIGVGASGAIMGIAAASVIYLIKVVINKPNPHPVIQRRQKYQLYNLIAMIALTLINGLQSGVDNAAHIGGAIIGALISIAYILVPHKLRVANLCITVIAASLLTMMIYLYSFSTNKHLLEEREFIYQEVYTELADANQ
PPARG: Peroxisome proliferator-activated receptor gamma (PPARG, Homo sapiens, UniProt P37231)
Chain of UniProt P37231 (whole entry, looked up): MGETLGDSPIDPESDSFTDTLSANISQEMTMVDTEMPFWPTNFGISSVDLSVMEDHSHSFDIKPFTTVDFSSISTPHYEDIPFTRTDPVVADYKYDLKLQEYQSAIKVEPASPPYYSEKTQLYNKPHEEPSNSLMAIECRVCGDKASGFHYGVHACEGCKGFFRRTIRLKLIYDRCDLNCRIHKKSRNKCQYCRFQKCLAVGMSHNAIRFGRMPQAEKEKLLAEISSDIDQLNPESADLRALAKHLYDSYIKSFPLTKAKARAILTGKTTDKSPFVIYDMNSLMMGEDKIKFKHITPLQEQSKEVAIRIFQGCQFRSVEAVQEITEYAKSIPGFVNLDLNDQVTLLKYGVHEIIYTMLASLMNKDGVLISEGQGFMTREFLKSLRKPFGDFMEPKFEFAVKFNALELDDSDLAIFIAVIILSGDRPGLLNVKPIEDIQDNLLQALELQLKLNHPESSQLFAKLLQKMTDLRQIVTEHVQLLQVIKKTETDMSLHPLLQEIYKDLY
HDAC1: Histone deacetylase 1 (HDAC1, Homo sapiens, UniProt Q13547)
Chain of UniProt Q13547 (whole entry, looked up): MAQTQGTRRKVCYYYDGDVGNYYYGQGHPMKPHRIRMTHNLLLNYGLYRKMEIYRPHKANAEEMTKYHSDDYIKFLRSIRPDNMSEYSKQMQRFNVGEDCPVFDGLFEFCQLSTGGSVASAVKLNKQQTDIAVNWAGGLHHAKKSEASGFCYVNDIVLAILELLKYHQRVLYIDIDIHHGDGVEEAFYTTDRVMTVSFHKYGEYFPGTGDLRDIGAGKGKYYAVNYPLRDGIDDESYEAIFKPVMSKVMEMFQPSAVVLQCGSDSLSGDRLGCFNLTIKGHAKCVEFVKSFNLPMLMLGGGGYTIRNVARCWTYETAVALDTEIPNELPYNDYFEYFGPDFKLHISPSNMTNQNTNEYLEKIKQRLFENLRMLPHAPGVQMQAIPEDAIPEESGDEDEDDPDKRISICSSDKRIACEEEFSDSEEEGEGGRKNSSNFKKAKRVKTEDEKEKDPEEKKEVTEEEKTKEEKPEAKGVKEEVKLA
Chain of UniProt P08173 (whole entry, looked up): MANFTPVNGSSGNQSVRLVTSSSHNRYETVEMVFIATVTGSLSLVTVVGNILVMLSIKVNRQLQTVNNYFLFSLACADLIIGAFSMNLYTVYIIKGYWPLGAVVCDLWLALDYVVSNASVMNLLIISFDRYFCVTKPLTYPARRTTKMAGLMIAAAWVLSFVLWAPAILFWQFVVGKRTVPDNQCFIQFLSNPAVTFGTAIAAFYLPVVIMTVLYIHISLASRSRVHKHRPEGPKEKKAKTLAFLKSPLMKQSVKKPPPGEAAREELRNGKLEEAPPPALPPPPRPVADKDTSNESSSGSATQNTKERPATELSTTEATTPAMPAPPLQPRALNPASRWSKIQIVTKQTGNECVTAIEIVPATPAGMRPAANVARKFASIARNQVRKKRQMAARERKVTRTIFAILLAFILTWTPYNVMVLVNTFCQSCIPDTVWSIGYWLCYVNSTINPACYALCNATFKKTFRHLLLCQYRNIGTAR
Chain of UniProt P49840 (whole entry, looked up): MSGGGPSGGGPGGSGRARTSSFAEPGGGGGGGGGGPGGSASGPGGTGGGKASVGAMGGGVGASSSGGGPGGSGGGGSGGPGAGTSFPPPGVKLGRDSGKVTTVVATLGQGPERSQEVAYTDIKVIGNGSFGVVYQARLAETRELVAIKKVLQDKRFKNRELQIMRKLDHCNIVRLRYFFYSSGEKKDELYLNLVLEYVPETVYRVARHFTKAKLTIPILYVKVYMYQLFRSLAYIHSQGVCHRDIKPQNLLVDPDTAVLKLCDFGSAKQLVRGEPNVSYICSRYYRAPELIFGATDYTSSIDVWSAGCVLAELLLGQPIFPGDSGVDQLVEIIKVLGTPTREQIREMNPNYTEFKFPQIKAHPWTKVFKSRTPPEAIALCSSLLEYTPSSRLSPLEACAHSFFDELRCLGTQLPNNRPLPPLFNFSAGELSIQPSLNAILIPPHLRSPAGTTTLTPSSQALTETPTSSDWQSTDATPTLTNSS
Chain of UniProt Q14524 (whole entry, looked up): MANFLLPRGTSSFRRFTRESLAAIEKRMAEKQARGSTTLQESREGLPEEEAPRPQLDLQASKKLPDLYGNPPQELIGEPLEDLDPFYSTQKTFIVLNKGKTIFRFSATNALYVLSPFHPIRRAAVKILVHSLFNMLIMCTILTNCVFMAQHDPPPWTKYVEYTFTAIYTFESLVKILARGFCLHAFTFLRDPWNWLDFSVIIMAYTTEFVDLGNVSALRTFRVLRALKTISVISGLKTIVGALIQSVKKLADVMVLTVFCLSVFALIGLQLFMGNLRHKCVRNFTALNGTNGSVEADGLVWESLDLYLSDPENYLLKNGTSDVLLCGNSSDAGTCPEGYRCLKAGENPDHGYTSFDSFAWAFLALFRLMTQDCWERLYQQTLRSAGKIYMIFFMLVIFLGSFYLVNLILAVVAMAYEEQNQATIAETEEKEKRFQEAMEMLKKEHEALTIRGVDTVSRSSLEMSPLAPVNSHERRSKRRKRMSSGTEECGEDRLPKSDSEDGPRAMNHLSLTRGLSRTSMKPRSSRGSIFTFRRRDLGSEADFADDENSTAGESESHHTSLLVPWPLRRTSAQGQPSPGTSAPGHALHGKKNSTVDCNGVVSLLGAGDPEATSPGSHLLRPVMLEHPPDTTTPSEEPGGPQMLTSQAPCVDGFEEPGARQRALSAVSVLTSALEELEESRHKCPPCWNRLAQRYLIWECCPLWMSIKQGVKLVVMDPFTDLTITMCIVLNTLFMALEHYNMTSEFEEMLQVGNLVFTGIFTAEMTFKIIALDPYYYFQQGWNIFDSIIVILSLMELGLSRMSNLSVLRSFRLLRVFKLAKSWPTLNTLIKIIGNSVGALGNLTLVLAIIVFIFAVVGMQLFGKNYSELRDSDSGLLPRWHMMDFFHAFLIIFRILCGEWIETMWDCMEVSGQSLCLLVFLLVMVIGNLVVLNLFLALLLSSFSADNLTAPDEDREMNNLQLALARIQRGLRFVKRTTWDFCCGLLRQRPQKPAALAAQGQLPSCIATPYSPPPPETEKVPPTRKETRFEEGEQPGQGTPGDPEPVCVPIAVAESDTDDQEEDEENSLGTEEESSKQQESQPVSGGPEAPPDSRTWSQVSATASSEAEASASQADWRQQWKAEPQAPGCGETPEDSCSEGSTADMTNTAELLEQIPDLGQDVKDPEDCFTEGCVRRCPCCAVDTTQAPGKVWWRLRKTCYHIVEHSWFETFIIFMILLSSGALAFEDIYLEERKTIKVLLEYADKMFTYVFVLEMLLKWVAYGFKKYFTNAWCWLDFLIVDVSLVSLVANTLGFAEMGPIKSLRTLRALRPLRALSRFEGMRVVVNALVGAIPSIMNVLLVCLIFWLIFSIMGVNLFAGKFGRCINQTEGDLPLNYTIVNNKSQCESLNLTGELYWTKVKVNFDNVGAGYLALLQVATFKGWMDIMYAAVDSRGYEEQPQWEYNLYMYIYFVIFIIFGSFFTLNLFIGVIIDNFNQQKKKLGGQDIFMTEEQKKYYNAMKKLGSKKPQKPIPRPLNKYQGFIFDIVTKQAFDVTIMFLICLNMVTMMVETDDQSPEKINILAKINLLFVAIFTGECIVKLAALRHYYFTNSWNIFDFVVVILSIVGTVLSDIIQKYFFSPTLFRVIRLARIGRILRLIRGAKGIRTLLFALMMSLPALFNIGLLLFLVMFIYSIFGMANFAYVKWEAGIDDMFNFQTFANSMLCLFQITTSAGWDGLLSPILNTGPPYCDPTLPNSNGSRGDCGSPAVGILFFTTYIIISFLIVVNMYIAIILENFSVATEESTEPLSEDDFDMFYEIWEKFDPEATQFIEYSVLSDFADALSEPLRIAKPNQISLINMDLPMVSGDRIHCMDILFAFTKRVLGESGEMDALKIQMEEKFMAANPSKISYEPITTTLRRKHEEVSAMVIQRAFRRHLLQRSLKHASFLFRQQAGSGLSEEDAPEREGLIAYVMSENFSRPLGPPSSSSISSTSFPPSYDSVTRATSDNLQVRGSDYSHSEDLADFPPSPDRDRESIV
Chain of UniProt P28065 (whole entry, looked up): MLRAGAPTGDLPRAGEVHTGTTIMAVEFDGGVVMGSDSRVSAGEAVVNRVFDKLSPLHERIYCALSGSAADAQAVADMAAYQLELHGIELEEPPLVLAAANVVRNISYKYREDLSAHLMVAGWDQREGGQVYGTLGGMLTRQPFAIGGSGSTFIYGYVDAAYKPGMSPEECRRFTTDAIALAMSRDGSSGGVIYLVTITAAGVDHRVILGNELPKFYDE
Chain of UniProt P28064 (whole entry, looked up): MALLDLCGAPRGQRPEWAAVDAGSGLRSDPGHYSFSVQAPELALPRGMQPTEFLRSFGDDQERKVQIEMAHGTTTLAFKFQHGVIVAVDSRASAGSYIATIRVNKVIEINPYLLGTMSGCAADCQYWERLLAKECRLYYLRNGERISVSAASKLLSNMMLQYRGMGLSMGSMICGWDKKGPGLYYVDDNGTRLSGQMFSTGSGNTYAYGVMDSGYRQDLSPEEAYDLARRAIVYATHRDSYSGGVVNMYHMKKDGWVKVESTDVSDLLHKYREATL
Chain of UniProt P40306 (whole entry, looked up): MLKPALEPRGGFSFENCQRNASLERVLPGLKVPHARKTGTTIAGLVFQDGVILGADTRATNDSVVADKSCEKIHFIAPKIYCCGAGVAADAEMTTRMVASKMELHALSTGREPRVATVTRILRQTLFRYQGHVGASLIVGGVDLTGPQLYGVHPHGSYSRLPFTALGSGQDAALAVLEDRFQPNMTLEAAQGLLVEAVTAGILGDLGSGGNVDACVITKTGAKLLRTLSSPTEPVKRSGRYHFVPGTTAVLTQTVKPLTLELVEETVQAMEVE

SMILES = Cc1c(Cc2ccc(OC(C)(C)C(=O)O)cc2)c2ccc(C(=O)N[C@@H](C)c3cccc(C(C)C)c3)cc2n1C; target = Peroxisome proliferator-activated receptor gamma, ligand-binding domain (PPARG, Homo sapiens, UniProt P37231); assay = reporter gene, luciferase reporter; test system = HEK293T, Gal4-PPARγ LBD; IC50 = 1.64 µM
SMILES = Cc1ccc(S(=O)(=O)N2CC(NC(=O)c3cccc(F)c3)C2=O)cc1 (centres unmarked); target = Rhomboid protease AarA; assay = enzyme activity, inhibitor, fluorescence; IC50 = 85 µM
SMILES = CCC(Oc1cccc(Cc2c(C)n(C)c3cc(C(=O)NC(C)c4cccc(C(C)(C)C)c4)ccc23)c1)C(=O)O (mixture of isomers); target = PPARG; assay = ligand displacement, TR-FRET; IC50 = 0.308 µM
SMILES = Cc1nc2ccc(Br)cc2c(=O)n1N; target = collagenase; assay = enzyme activity, inhibitor; conditions = added: casein substrate; IC50 = 27 ± 1.41 µg/mL
SMILES = CCOc1cccc(NC(=O)C(C(F)(F)F)C(F)(F)F)c1; target = Rhomboid protease AarA; assay = enzyme activity, inhibitor, fluorescence; IC50 = 11 µM
SMILES = CC[C@H](C)[C@@H]1NC(=O)[C@H](Cc2ccc(O)cc2)NC(=O)CSC[C@@H](C(N)=O)NC(=O)[C@H](CC(N)=O)NC(=O)[C@H](Cc2cnc[nH]2)NC(=O)[C@H](Cc2ccc(O)cc2)NC(=O)[C@H](CC(=O)O)NC(=O)[C@H](Cc2ccc(O)cc2)NC(=O)[C@H](CC(C)C)NC(=O)[C@H](CCCNC(=N)N)NC1=O; target = Melanoma-associated antigen 4, MAGE homology domain (Homo sapiens, UniProt P43358); assay = binding, TR-FRET displacement; conditions = added: Alexa647-labelled compound tracer; IC50 = 0.0241 ± 0.0086 µM
SMILES = Cc1c(Cc2cccc(OC(C)(C)C(=O)O)c2)c2ccc(C(=O)N[C@@H](C)c3cccc(C4CC4)c3)cc2n1C; target = PPARG; assay = ligand displacement, TR-FRET; IC50 = 0.005 µM
SMILES = Cc1nn(-c2cccc(N)c2)c(=O)c2cnc(Nc3ccc(N4CCNCC4)cc3)nc12; target = GSK3A (Homo sapiens, UniProt P49840); assay = enzyme activity, inhibitor; IC50 = 3.44 µM
SMILES = O=C(Cc1ccc(OCc2ccccc2)cc1)NC1(C(=O)O)CCN(C(=O)c2ccc(-c3cccc(Cl)c3)cc2)CC1; target = LPAR5 (Homo sapiens, UniProt Q9H1C0); assay = antagonist, GloSensor cAMP; IC50 = > 10 µM
SMILES = Cc1c(Cc2cccc(OC(C)C(=O)O)c2)c2ccc(C(=O)N[C@@H](C)c3ccc(C(F)(F)F)cc3)cc2n1C (some centres unmarked); target = PPARG; assay = ligand displacement, TR-FRET; IC50 = 0.001 µM
SMILES = O=C(CCNC(=O)CNC(=O)CC(c1ccccc1)(c1ccccc1)c1ccccc1)NC[C@H]1CCCN(C(=O)c2ccc(F)cc2)C1; target = CHRM4 (Homo sapiens, UniProt P08173); assay = ligand displacement, radioligand; conditions = cell membranes; IC50 = > 30 µM
SMILES = CCn1nc(Cl)c2c1-c1cnc(N)c(c1)O[C@H](C)c1cc(F)ccc1-c1nn(C)cc1C2; target = MAP4K5 (Homo sapiens, UniProt Q9Y4K4); assay = enzyme activity, inhibitor, radiometric; IC50 = 0.795 µM
SMILES = COC(=O)CCCCNC(=O)Cc1ccc(Nc2ncc(F)c(-c3cc(F)c4nc(C)n(C(C)C)c4c3)n2)cc1; target = HDAC1; assay = enzyme activity, inhibitor; IC50 = > 1 µM
SMILES = Cc1ccc(S(=O)(=O)N2N=Cc3ccsc3B2O)cc1; target = Plasma kallikrein (KLKB1, Homo sapiens, UniProt P03952); assay = enzyme activity, inhibitor; IC50 = > 100 µM
SMILES = Cc1ccc(C(F)(F)CNC(=O)c2cc(Cl)nnc2Oc2cccc(C(F)(F)F)c2)c(C)c1; target = serine palmitoyltransferase (Zymoseptoria tritici, UniProt F9X349+F9XMN6); IC50 = 0.168 ± 0.045 µM
SMILES = CCOc1ccccc1NC(=O)C(C(F)(F)F)C(F)(F)F; target = Rhomboid protease AarA; assay = enzyme activity, inhibitor, fluorescence; IC50 = 3.5 µM
SMILES = O=C(Nc1ccc2[nH]ncc2c1)c1c[nH]cc1-c1ccccc1; target = SCN5A (Homo sapiens, UniProt Q14524); assay = sodium current, inhibitor; test system = HEK293 stably expressing Nav1.5; IC50 = 22.5 µM
SMILES = COc1ccc(Cn2nccc2NC(=O)C(C(F)(F)F)C(F)(F)F)cc1; target = Rhomboid protease AarA; assay = enzyme activity, inhibitor, fluorescence; IC50 = 25 µM
SMILES = Cc1cc(C)nc(NC(=S)N2CCN(c3ccncc3)CC2)c1; target = LDHA (Homo sapiens, UniProt P00338); assay = enzyme activity, inhibitor; IC50 = > 57 µM
SMILES = COC(=O)CCCCCC(=O)Nc1ccc(Nc2ncc(F)c(-c3cc(F)c4nc(C)n(C(C)C)c4c3)n2)cc1; target = HDAC1; assay = enzyme activity, inhibitor; IC50 = > 1 µM
SMILES = Cc1c(Cc2cccc(OC(C)(C)C(=O)O)c2)c2ccc(C(=O)N[C@H](C)c3ccc(C(C)(C)C)cc3)cc2n1C; target = PPARG; assay = ligand displacement, TR-FRET; IC50 = 0.001 µM
SMILES = COc1cc2c(c(OC)c1OC)-c1c(cc3c(c1OC)OCO3)CC(C)C(C)C2 (centres unmarked); target = CYP3A, rat; assay = poziotinib metabolism to M2, inhibitor; test system = rat liver microsomes, 0.3 mg/mL; conditions = 30 min, added: poziotinib 5 µM; IC50 = 6.97 µM
SMILES = COCCN(C)C(C)C(=O)NC(Cc1ccc(-c2ccccc2)cc1)B(O)O (centres unmarked); target = Proteasome subunit beta type-9 / Proteasome subunit beta type-10 (Homo sapiens, UniProt P28065+P40306); assay = β1i activity, inhibitor; conditions = immunoproteasome, added: Ac-PAL-AMC; IC50 = > 10 µM
SMILES = Cc1ccc(CNC(=O)[C@@H](NC(=O)[C@H](CCc2ccccc2)NC(=O)[C@H](CCc2ccccc2)NCc2cnccn2)C(C)C)cc1; target = Psmb1/Psmb8 (Rattus norvegicus, UniProt P18421+P28064); assay = enzyme activity, inhibitor; conditions = added: Ac-ANW-aminocoumarin, PA28α 12 nM; IC50 = 1.81 µM
SMILES = O=C(Nc1cccc2c1OCC2)C(C(F)(F)F)C(F)(F)F; target = Rhomboid protease AarA; assay = enzyme activity, inhibitor, fluorescence; IC50 = 7.3 µM
SMILES = Cc1c(Cc2ccc(OC(C)C(=O)O)cc2)c2ccc(C(=O)NC(C)c3ccc(C(F)(F)F)cc3)cc2n1C (mixture of isomers); target = PPARG; assay = ligand displacement, TR-FRET; IC50 = 0.073 µM
SMILES = O=C(Nc1ccccc1C(=O)N1CCOCC1)C(C(F)(F)F)C(F)(F)F; target = Rhomboid protease AarA; assay = enzyme activity, inhibitor, fluorescence; IC50 = 25 µM
SMILES = CCN(CC)CC(=O)Nc1cccc(-n2cc(-c3ccc4ccc(-c5cn(-c6cccc(NC(=O)CN(CC)CC)c6)nn5)cc4c3)nn2)c1; target = ROCK2 (Homo sapiens, UniProt O75116); assay = enzyme activity, inhibitor; IC50 = 7.2 µM
SMILES = Cc1c(Cc2cccc(OC(C)(C)C(=O)O)c2)c2ccc(C(=O)N[C@@H](C)c3ccc(C(F)(F)F)cc3)cc2n1C; target = PPARG; assay = ligand displacement, TR-FRET; IC50 = 0.001 µM
SMILES = CC(C)(C)c1ccc(C2CC(=O)N2S(=O)(=O)c2cccc(Cl)c2)cc1 (centres unmarked); target = Rhomboid protease AarA; assay = enzyme activity, inhibitor, fluorescence; IC50 = 40 µM
SMILES = Cc1c(Cc2cccc(OC(C)(C)C(=O)O)c2)c2ccc(C(=O)N[C@@H](C)c3cc(C(C)(C)C)ccc3F)cc2n1CC(C)C; target = PPARG; assay = ligand displacement, TR-FRET; IC50 = 0.00194 µM
SMILES = O=C1CC(c2ccccc2)N1S(=O)(=O)c1cccc(-c2ccccc2)c1 (centres unmarked); target = Rhomboid protease AarA; assay = enzyme activity, inhibitor, fluorogenic peptide; conditions = 68 min pre-incubation; IC50 = 13 µM

A few entries again:
SMILES = COC(=O)CCCCCC(=O)Nc1ccc(Nc2ncc(F)c(-c3cc(F)c4nc(C)n(C(C)C)c4c3)n2)cc1; target = HDAC1; assay = enzyme activity, inhibitor; IC50 = > 1 µM
SMILES = CCOc1cccc(NC(=O)C(C(F)(F)F)C(F)(F)F)c1; target = Rhomboid protease AarA; assay = enzyme activity, inhibitor, fluorescence; IC50 = 11 µM
SMILES = Cc1c(Cc2cccc(OC(C)C(=O)O)c2)c2ccc(C(=O)N[C@@H](C)c3ccc(C(F)(F)F)cc3)cc2n1C (some centres unmarked); target = PPARG; assay = ligand displacement, TR-FRET; IC50 = 0.001 µM
SMILES = O=C(Nc1ccc2[nH]ncc2c1)c1c[nH]cc1-c1ccccc1; target = SCN5A (Homo sapiens, UniProt Q14524); assay = sodium current, inhibitor; test system = HEK293 stably expressing Nav1.5; IC50 = 22.5 µM
SMILES = COc1cc2c(c(OC)c1OC)-c1c(cc3c(c1OC)OCO3)CC(C)C(C)C2 (centres unmarked); target = CYP3A, rat; assay = poziotinib metabolism to M2, inhibitor; test system = rat liver microsomes, 0.3 mg/mL; conditions = 30 min, added: poziotinib 5 µM; IC50 = 6.97 µM
